# Assay results from different studies.
# Chains of the proteins cited; added tags and fusions are not shown. Residues count along the entry.
# UniProt P41145, whole entry: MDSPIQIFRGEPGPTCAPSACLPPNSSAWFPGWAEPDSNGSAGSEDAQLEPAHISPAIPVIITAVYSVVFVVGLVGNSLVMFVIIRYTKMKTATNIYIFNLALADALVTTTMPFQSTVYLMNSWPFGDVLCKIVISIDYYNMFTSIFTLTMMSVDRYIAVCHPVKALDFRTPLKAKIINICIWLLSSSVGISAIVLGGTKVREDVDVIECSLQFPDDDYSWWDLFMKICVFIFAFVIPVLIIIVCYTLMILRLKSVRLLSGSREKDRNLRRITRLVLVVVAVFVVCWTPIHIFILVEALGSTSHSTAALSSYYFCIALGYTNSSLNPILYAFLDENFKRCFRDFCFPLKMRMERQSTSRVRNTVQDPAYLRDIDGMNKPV
# UniProt P21836, whole entry, looked up: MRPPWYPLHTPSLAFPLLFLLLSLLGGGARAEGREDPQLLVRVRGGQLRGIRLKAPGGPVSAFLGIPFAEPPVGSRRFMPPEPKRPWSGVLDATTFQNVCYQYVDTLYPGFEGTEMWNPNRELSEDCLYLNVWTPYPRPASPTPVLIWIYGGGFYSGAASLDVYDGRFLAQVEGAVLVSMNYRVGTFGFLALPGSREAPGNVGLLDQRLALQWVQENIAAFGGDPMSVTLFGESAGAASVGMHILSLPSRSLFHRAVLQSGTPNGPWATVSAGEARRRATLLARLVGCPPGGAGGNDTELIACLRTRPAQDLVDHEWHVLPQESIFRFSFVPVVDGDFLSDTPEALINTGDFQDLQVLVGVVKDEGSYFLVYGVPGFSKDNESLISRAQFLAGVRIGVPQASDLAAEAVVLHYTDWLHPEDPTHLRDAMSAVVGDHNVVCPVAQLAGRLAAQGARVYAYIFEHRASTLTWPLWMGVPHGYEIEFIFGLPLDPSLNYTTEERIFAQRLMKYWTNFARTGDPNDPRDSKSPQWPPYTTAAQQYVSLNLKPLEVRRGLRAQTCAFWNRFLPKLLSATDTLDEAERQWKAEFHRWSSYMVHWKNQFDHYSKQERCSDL
# UniProt Q9GZQ6, whole entry: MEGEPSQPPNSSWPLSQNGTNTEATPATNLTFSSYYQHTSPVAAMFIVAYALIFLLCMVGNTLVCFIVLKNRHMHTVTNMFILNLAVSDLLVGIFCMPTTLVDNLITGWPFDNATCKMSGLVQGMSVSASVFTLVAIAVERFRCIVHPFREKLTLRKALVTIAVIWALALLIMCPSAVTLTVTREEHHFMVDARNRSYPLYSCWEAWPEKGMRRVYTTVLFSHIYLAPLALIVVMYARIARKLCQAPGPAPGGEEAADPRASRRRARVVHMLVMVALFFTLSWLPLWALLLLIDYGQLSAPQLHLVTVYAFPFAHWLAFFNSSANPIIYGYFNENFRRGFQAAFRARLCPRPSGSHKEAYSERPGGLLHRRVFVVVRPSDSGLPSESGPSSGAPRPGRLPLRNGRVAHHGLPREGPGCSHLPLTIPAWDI
# UniProt P22303, 32-614 limits assumed: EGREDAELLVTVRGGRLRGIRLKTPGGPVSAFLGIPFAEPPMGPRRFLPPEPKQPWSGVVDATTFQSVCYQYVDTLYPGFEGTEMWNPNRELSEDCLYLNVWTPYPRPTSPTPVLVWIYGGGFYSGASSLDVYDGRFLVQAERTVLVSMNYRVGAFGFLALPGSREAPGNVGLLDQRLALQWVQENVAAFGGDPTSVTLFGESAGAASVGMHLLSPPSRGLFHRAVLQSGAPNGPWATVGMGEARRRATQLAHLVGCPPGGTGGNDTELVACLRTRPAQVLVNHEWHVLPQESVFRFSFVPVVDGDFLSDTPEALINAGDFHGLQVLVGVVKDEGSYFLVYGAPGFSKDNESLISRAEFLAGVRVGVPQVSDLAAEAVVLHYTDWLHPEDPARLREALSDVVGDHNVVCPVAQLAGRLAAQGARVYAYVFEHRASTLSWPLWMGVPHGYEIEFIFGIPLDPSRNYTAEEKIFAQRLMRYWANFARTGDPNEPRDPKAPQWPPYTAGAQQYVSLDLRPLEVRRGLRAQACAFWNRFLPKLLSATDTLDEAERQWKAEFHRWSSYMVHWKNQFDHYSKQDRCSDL
# UniProt P22303, whole entry, looked up: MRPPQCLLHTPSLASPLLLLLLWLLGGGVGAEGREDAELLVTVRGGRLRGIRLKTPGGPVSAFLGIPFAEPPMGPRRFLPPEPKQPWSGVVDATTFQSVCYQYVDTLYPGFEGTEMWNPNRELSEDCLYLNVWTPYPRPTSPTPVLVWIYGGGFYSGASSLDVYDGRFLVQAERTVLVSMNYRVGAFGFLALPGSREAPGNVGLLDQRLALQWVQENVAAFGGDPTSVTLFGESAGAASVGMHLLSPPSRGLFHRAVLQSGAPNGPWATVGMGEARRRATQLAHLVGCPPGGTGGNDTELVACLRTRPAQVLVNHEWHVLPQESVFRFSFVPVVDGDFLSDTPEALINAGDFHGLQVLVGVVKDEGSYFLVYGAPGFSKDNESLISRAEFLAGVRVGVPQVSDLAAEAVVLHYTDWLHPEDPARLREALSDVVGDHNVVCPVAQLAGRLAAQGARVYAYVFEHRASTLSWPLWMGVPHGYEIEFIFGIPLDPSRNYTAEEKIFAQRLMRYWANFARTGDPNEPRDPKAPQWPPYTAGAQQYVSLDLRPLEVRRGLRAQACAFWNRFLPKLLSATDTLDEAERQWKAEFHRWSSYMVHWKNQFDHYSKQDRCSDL
# UniProt Q99720, whole entry: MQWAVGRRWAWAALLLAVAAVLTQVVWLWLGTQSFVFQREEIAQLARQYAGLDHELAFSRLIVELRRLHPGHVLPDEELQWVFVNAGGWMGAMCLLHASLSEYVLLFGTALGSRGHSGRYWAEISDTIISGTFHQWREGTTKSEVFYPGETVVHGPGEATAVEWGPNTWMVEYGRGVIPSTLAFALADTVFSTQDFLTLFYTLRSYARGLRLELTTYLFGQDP
# UniProt P35372, whole entry: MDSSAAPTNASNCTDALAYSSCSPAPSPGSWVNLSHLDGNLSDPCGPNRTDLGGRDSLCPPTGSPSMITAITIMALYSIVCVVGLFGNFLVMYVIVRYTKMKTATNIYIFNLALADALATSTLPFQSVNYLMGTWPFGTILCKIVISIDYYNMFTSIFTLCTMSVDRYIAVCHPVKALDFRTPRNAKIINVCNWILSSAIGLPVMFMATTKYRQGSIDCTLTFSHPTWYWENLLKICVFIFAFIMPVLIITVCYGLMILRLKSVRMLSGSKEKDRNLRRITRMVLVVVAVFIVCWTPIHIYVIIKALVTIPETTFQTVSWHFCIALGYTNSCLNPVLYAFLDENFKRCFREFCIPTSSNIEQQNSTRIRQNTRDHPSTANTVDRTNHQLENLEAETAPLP
# UniProt P33535, whole entry: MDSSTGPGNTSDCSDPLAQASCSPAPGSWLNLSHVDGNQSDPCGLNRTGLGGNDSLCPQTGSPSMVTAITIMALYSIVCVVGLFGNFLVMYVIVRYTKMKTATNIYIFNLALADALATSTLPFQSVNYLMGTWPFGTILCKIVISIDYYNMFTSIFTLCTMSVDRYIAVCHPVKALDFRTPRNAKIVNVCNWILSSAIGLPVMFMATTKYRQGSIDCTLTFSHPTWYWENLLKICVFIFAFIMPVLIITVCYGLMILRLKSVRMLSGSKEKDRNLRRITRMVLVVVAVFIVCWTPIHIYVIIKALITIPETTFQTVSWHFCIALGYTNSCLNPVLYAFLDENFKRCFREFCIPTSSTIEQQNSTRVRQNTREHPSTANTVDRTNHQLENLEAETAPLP
# UniProt P49582, 23-502 limits assumed: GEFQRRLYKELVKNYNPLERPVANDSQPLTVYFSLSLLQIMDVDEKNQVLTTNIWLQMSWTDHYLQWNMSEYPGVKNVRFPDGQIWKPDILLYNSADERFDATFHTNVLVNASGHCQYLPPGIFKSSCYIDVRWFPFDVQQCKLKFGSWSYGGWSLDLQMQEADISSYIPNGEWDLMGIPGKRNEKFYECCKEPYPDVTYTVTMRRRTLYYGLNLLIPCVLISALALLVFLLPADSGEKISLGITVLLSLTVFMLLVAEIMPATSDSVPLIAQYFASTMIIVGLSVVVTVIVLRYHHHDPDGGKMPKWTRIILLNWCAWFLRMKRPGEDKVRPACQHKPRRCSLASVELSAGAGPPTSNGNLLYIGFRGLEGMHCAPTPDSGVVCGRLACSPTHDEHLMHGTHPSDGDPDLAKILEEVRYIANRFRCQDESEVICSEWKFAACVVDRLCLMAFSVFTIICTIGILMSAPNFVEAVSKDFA
# UniProt P36544, 23-502 limits assumed: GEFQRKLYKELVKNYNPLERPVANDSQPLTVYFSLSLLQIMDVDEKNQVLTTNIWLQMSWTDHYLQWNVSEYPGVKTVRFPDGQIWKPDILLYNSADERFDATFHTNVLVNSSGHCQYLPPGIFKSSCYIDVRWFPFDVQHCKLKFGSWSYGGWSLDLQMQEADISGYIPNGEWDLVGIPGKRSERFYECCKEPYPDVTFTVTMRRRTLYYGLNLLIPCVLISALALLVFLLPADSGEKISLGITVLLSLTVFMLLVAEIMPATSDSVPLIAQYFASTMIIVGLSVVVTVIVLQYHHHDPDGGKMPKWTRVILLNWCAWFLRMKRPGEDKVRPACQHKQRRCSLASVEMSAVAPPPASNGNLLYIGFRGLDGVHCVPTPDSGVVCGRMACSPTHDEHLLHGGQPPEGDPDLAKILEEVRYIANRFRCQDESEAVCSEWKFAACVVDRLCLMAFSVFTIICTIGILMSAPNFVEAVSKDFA
# UniProt P23953, whole entry, looked up: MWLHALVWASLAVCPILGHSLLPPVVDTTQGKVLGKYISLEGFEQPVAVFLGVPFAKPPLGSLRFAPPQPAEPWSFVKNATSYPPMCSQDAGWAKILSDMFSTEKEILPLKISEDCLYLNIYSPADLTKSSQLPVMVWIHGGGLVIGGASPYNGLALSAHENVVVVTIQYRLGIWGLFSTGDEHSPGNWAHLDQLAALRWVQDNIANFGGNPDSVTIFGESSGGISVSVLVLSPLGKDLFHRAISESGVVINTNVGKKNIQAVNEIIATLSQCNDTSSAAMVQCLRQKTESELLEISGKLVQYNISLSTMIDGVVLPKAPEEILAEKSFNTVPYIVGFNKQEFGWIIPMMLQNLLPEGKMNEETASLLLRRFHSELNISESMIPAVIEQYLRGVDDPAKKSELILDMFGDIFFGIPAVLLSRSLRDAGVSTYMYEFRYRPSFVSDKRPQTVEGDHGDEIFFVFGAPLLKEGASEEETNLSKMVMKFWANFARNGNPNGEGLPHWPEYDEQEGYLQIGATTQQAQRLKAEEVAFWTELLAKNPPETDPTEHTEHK
# UniProt P41146, whole entry: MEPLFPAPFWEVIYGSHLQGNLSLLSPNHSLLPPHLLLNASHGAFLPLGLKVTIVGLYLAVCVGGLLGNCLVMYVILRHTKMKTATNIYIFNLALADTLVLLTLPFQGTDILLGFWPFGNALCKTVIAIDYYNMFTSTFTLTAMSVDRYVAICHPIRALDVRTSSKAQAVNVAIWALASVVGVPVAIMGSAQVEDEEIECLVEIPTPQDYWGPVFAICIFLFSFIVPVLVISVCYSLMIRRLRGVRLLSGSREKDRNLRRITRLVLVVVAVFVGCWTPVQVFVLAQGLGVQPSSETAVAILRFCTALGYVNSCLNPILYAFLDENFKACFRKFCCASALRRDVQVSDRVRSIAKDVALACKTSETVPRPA
# ± marks the error that the study gave.
# OPRK1: Kappa-type opioid receptor (OPRK1, Homo sapiens, UniProt P41145)
# Ache: Acetylcholinesterase (Ache, Mus musculus, UniProt P21836)
Structure (SMILES),tested on,assay,system,setting,scale,quantity,value
N=C(N)NCCNC(=O)C1(Nc2ccccc2)CCN(Cc2ccccc2)CC1,"NPFFR1 (Homo sapiens, UniProt Q9GZQ6)",,,,baseline: mu/delta/kappa opioid over NPFF1,selectivity ratio,≥ 18 fold
CO[C@]12CC[C@@]3(C[C@@H]1[C@](C)(O)c1cccc(F)c1)[C@H]1Cc4ccc(O)c5c4[C@@]3(CCN1CC1CC1)[C@H]2O5,OPRK1,"G-protein activation, agonist",,10 µM,baseline: U-69593,stimulation,77 ± 1%
CC(C)OP(=S)(OC(C)C)SCCNS(=O)(=O)c1ccccc1,"ACHE (Homo sapiens, UniProt P22303)","enzyme activity, inhibitor, fluorescence",,human liver microsomes with NADPH,,IC50,inactive
COc1cc(CNC(=O)c2cnc3c(=O)[nH]c(N)nc3n2)cc(OC)c1OC,"Ricin, A chain (Ricinus communis, UniProt P02879)",differential scanning fluorimetry,,"500 µM, pH 7.5, 2 µM protein",,ΔTm,1 °C
NC(=O)c1ccc[n+]([C@@H]2O[C@H](COP(=O)([O-])OP(=O)(O)OC[C@H]3O[C@@H](n4cnc5c(N)ncnc54)[C@H](O)[C@@H]3O)[C@@H](O)[C@H]2O)c1,"Inosine-5'-monophosphate dehydrogenase (Clostridium perfringens, UniProt A0A127ELD1)",substrate,,,,Kii,13 ± 2 mM
CCC1C(=O)N(C2CCN(C(C)CC(c3ccccc3)c3ccccc3)CC2)c2ccccc21 (centres unmarked),OPRK1,radioligand displacement,,added: tritiated U-69593,,Ki,4170 nM
CCOP(=O)(OCC)Oc1ccc([N+](=O)[O-])cc1,Ache,,"ES1+/+ mice, plasma","subcutaneous, 0.2 mg/kg, 0.5 h, toxicant challenge",,inhibition,57.5 ± 1.4%
Nc1ncnc2c1ncn2[C@@H]1O[C@H](COP(=O)(O)OP(=O)(O)OP(=O)(O)O)[C@@H](O)[C@H]1O,"Genome polyprotein, RNA polymerase 3D (Human poliovirus 1 Mahoney, UniProt P03300, K2107H)",pH dependence of kpol,,,,pKa,6.9 ± 0.3
CCOP(=S)(OCC)Oc1ccc([N+](=O)[O-])cc1,Ache,,"ES1-/- mice, plasma","subcutaneous, 12.5 mg/kg, 6.0 h, toxicant challenge",,inhibition,73%
CCCSc1nc(N[C@@H]2C[C@H]2c2ccc(F)c(F)c2)c2nnn([C@@H]3C[C@H](OCCO)[C@@H](O)[C@H]3O)c2n1,,,"STEMI patients, plasma","oral, 180 mg loading dose, median, added: fentanyl",,Tmax,6 h
Cc1cc2c(-c3ccco3)cnc(N[C@@H]3CCN(C)C[C@H]3C(=O)NC3CCCCC3)c2[nH]c1=O,"SIGMAR1 (Homo sapiens, UniProt Q99720)","binding, radioligand binding",,10 µM,,inhibition,22.6%
C=C(C)[C@H]1CCC(C)=C[C@@H]1c1c(O)cc(CC)cc1O,"OPRM1 (Homo sapiens, UniProt P35372)","cAMP inhibition reversal, antagonist",,added: fentanyl,baseline: compound IC50 over cannabidiol IC50,IC50 ratio,~3.6
C[C@H](NP(=O)(Nc1ccn([C@H]2CS[C@@H](COP(=O)(N[C@@H](C)C(=O)OCc3ccccc3)N[C@@H](C)C(=O)OCc3ccccc3)O2)c(=O)n1)N[C@@H](C)C(=O)OCc1ccccc1)C(=O)OCc1ccccc1,COLO 320,cell proliferation,,72 h,,IC50,> 250000 nM
NC12CC3CC(CC(C3)C1)C2,Influenza A virus,"viral replication, plaque size reduction","MDCK, A/Swine/Iowa/13-0515/2010 (H3N2)",,,EC50,< 1000 nM
CCN(CC)Cc1cc(N)ccc1O,"Acetylcholinesterase, paraoxon-inhibited (ACHE, Homo sapiens, UniProt P22303)","reactivation of inhibited enzyme, reactivator",,"maximum rate at saturation, added: paraoxon-inhibited enzyme",,k2,~0.14 min⁻¹
O=CN1CC[C@]23c4c5ccc(O)c4O[C@H]2[C@@H](O)C=C[C@H]3[C@H]1C5,"Oprm1 (Rattus norvegicus, UniProt P33535)",,,,baseline: Ki delta over Ki mu,selectivity ratio,49
O=S1(=O)c2ccc(F)cc2-c2ccc(N3CCN4CCC3CC4)cc21 [fluorine-18 labelled],"Chrna7 (Mus musculus, UniProt P49582)",,"CD-1 mouse, Chrna7-rich brain regions","90 min, self-blockade",,baseline to blockade ratio,5
C[C@@H]1NC(=O)[C@H](CCCNC(=N)N)NC(=O)[C@H](CCCNC(=N)N)NC(=O)[C@H](CCCNC(=N)N)NC(=O)[C@H](CO)NC(=O)[C@@H]2CSSC[C@H](NC(=O)CN)C(=O)N[C@@H](CSSC[C@@H](C(N)=O)NC(=O)[C@H](CO)NC(=O)[C@H](CCCNC(=N)N)NC1=O)C(=O)N[C@@H](CO)C(=O)N[C@@H](Cc1c[nH]cn1)C(=O)N1CCC[C@H]1C(=O)N[C@@H](C)C(=O)N2,"CHRNA7 (Homo sapiens, UniProt P36544)","ion current, antagonist",Xenopus oocytes,"10 µM, 5 min, after washout, added: acetylcholine",baseline: control,recovery of response,0.5 ± 0.2%
CCOP(=S)(OCC)Oc1cc(C)nc(C(C)C)n1,"Ces1c (Mus musculus, UniProt P23953)",alpha-naphthyl acetate hydrolysis,"ES1+/+ mice, plasma","subcutaneous, 50.0 mg/kg, 2.0 h, toxicant challenge",,inhibition,100%
O=C1Cc2ccccc2N1C1CCN([C@H]2CC[C@@H]3CCCc4cccc2c43)CC1 (relative stereo),"Nociceptin receptor (OPRL1, Homo sapiens, UniProt P41146)",agonist,cell membranes,,,EC50,84.9 ± 1.12 nM

# A few entries again:
Structure (SMILES),tested on,assay,system,setting,scale,quantity,value
C[C@@H]1NC(=O)[C@H](CCCNC(=N)N)NC(=O)[C@H](CCCNC(=N)N)NC(=O)[C@H](CCCNC(=N)N)NC(=O)[C@H](CO)NC(=O)[C@@H]2CSSC[C@H](NC(=O)CN)C(=O)N[C@@H](CSSC[C@@H](C(N)=O)NC(=O)[C@H](CO)NC(=O)[C@H](CCCNC(=N)N)NC1=O)C(=O)N[C@@H](CO)C(=O)N[C@@H](Cc1c[nH]cn1)C(=O)N1CCC[C@H]1C(=O)N[C@@H](C)C(=O)N2,"CHRNA7 (Homo sapiens, UniProt P36544)","ion current, antagonist",Xenopus oocytes,"10 µM, 5 min, after washout, added: acetylcholine",baseline: control,recovery of response,0.5 ± 0.2%
